Results of several laboratories.
Numbered parts are unrelated; each lists some results of a single study.

Sample 1
Cell line: HEK-293T/ACE2
Concentration: concentration not given
Time: 16 (unit not given)
Baseline: vehicle
`CCCCc1nc(Cl)c(CO)n1Cc1ccc(-c2ccccc2-c2nn[nH]n2)cc1` gave a viability of 99.7%.
`CC(=O)Nc1cccc(-n2c(=O)n(C3CC3)c(=O)c3c(Nc4ccc(I)cc4F)n(C)c(=O)c(C)c32)c1` has a viability of 99.8%.
`CC(CCc1ccccc1)NCC(O)c1ccc(O)c(C(N)=O)c1` (stereo not drawn) has a viability of 104%.
With `C[C@]12CC[C@H](O)CC1=CC[C@@H]1[C@@H]2CC[C@]2(C)C(c3cccnc3)=CC[C@@H]12` the viability was 99.3%.

Sample 2
Target: Replicase polyprotein 1ab, polymerase (rep, Severe acute respiratory syndrome coronavirus 2, UniProt P0DTD1)
Read-out: enzyme activity
Action: inhibitor
Concentration: 20 µM
For `CC(C)C[C@H](NC(=O)CN(C)C(=O)[C@H](Cc1ccccc1)NC(=O)[C@H](Cc1ccccc1)NC(=O)[C@H](CCC(N)=O)NC(=O)[C@H](CCC(N)=O)NC(=O)[C@@H]1CCCN1C(=O)[C@H](CCCCN)NC(=O)[C@@H]1CCCN1C(=O)[C@@H](N)CCCN=C(N)N)C(=O)N[C@@H](CCS(C)(=O)=O)C(N)=O`, the inhibition was -0.27%.
With `Clc1cccc(Nc2nnc(-c3ccccc3)c3ccccc23)c1` the inhibition was -3.88%.
`COc1cc(O)c2c(c1)C(=O)c1cc(C)cc(O)c1C2=O` gave an inhibition of -0.14%.
For `NCCS(=O)(=O)O`, the inhibition was -0.86%.
With `O=C1c2ccccc2C(=O)C1c1ccccc1` the inhibition was 13.5%.
`COc1cc(Br)c(S(=O)(=O)Nc2ccc(C(F)(F)F)c(O[C@@H]3CCN(C)C3)c2)cc1OC` gave an inhibition of 3.96%.

Sample 3
Target: Replicase polyprotein 1ab, main protease (rep, Severe acute respiratory syndrome coronavirus 2, UniProt P0DTD1)
Read-out: enzyme activity
Action: inhibitor
Concentration: 20 µM
Notes: primary screen
With `N=C(N)NN=C1C=CC(=NNC(N)=S)C=C1` the inhibition was 97.5%.
For `CC[C@@H](c1ccc(F)c(F)c1)n1c(C(=O)OC)c(-c2ccno2)[nH]c1=S`, the inhibition was 43.7%.
`O=C1C(CC[S+]([O-])c2ccccc2)C(=O)N(c2ccccc2)N1c1ccccc1` (stereo not drawn) has an inhibition of 28.2%.
With `COc1cc(CC2NCCc3cc(O)c(O)cc32)cc(OC)c1OC` (stereo not drawn) the inhibition was 73.9%.

Other studies, line by line
`CCn1c(-c2nonc2N)nc2c(C#CC(C)(C)O)ncc(OC[C@H]3CCCNC3)c21` gave an inhibition of 0.115% (Replicase polyprotein 1ab, main protease (rep, Severe acute respiratory syndrome coronavirus 2, UniProt P0DTD1); reporter gene (mKate2), inhibitor; 20 µM).

A few entries again (sample 1):
`CC(CCc1ccccc1)NCC(O)c1ccc(O)c(C(N)=O)c1` (stereo not drawn) has a viability of 104%.
With `C[C@]12CC[C@H](O)CC1=CC[C@@H]1[C@@H]2CC[C@]2(C)C(c3cccnc3)=CC[C@@H]12` the viability was 99.3%.
